# Published values gathered from unrelated publications.
# Values joined by “and” are separate records of one study, mostly repeats; a detail may differ. ± gives the spread as reported.
# ZBTB11/CRBN: ZBTB11/CRBN (Homo sapiens, UniProt O95625+Q96SW2)
# Chain of UniProt O95625 (whole entry, looked up): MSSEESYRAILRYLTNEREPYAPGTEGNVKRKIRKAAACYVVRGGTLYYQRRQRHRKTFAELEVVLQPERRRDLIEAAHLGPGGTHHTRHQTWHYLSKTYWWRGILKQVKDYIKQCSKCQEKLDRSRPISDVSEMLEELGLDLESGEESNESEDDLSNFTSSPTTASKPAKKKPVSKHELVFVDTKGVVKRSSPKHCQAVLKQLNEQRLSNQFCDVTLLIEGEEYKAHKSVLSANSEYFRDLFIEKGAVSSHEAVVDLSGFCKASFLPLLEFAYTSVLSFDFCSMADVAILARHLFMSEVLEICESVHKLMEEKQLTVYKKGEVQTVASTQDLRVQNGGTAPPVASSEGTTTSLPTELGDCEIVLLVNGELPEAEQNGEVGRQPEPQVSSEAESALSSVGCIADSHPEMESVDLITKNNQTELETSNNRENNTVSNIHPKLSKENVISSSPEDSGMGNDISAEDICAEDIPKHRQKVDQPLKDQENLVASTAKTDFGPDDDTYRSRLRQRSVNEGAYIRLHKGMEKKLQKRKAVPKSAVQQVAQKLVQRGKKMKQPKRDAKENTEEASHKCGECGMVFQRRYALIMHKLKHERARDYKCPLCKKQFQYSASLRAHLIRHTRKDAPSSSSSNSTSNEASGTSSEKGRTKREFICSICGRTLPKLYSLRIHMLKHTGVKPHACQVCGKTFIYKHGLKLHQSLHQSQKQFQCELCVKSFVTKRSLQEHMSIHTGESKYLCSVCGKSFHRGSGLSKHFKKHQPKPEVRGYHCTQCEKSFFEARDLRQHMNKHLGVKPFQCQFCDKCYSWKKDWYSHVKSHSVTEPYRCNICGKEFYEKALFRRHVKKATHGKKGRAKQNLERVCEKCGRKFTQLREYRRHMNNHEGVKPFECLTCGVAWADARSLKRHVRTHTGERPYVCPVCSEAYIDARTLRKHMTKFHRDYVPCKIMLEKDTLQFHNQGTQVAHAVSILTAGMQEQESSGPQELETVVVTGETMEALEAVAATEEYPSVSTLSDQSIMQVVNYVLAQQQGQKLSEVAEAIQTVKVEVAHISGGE
# Chain of UniProt Q96SW2 (whole entry, looked up): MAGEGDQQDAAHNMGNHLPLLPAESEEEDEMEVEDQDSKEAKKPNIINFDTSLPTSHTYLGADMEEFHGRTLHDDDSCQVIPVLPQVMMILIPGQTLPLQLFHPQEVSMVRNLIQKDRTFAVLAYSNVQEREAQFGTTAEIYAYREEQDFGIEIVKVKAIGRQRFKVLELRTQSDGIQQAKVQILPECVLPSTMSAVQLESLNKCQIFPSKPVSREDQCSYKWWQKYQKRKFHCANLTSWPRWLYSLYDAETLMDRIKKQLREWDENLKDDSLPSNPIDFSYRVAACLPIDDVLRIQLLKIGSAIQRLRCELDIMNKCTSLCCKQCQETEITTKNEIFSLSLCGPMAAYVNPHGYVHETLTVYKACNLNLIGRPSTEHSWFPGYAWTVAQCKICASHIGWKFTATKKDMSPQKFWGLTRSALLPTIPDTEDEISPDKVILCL
# USP20 ZnF-UBD domain: Ubiquitin carboxyl-terminal hydrolase 20, ZnF-UBD domain (USP20, Homo sapiens, UniProt Q9Y2K6)
# Chain of UniProt P51575 (whole entry, unmodified, looked up): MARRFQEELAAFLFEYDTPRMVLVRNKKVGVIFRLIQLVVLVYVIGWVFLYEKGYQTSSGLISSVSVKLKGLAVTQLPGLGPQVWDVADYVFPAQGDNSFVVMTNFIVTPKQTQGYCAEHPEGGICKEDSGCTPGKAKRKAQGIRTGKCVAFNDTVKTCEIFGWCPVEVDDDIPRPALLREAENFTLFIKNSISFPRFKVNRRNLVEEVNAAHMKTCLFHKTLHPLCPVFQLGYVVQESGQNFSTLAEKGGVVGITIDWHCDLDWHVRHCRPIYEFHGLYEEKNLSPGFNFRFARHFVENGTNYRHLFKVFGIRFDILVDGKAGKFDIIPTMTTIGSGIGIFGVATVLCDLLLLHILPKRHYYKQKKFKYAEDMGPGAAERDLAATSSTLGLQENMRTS
# Chain of UniProt Q16774 (whole entry, looked up): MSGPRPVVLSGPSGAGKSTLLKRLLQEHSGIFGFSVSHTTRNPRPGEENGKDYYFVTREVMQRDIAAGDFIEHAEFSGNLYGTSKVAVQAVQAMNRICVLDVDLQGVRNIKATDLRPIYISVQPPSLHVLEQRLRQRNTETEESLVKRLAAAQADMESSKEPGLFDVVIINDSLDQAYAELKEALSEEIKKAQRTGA
# Chain of UniProt Q64663 (whole entry, unmodified, looked up): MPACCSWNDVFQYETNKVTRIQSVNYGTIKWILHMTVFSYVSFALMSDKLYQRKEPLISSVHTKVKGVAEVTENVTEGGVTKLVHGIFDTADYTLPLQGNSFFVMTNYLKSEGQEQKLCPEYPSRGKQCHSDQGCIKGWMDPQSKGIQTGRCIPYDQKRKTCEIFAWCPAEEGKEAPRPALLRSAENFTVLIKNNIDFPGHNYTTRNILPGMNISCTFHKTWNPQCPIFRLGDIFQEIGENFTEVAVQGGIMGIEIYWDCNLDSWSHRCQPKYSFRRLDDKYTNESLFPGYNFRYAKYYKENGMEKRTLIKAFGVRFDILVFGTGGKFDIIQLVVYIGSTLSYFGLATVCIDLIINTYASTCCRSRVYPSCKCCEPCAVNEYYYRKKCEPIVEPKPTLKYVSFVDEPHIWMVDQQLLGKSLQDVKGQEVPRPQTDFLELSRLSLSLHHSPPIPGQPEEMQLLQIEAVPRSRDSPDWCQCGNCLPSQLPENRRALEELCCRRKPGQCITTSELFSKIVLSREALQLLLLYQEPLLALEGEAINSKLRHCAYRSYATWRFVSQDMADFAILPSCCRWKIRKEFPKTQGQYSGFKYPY
# Chain of UniProt Q9Y2K6 (whole entry, looked up): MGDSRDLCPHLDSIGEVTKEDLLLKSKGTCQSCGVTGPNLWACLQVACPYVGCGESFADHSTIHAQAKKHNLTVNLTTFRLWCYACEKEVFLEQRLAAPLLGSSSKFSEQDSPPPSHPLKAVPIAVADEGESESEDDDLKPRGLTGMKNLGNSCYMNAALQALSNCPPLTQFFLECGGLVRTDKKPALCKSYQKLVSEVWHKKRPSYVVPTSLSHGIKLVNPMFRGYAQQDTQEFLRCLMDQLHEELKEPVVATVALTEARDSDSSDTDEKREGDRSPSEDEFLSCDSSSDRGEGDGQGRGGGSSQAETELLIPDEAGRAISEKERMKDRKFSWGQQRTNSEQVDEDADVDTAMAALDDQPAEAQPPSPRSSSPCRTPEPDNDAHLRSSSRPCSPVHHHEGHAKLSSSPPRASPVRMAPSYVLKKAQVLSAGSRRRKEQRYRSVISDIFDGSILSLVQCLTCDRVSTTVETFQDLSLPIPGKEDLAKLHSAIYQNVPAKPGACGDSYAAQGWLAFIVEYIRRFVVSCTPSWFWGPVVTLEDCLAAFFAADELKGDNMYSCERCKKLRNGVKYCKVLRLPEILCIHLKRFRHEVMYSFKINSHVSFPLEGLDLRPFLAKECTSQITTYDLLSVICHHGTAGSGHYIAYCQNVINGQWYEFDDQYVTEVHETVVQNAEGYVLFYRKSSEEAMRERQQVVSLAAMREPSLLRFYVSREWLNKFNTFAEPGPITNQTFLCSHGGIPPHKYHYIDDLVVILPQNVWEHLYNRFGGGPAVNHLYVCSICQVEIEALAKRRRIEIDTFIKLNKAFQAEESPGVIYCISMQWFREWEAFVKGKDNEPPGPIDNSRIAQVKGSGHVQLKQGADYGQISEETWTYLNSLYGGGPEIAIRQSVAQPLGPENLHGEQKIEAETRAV
# Chain of UniProt P20393 (whole entry, looked up): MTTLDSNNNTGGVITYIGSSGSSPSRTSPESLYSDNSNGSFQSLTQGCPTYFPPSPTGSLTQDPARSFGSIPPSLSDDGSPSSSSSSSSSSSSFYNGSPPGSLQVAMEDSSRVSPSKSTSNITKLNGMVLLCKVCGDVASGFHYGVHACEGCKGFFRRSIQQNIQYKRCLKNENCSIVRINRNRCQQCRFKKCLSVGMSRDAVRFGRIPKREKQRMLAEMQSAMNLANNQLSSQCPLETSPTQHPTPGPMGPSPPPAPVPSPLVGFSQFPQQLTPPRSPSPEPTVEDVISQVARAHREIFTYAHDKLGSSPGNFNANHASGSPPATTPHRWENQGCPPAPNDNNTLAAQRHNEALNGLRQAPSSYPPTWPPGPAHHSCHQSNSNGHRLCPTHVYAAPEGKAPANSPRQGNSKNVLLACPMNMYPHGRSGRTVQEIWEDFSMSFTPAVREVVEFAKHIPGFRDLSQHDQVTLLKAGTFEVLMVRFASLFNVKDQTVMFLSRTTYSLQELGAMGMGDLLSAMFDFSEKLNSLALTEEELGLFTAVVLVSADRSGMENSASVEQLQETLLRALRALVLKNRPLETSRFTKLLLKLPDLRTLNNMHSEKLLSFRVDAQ
# Chain of UniProt Q15208 (whole entry, looked up): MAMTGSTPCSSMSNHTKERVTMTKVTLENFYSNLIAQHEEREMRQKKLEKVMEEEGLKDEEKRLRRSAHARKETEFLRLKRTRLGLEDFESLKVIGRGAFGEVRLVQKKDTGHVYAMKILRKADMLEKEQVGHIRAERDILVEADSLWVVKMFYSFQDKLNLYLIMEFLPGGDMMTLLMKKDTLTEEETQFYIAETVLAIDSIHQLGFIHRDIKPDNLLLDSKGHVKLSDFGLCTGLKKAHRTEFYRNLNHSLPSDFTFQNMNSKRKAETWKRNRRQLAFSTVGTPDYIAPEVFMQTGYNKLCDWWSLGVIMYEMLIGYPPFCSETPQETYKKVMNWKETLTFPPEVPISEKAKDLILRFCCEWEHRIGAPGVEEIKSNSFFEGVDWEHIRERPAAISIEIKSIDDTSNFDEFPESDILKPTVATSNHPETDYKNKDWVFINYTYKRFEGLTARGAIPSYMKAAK
# Chain of UniProt P02763 (whole entry, looked up): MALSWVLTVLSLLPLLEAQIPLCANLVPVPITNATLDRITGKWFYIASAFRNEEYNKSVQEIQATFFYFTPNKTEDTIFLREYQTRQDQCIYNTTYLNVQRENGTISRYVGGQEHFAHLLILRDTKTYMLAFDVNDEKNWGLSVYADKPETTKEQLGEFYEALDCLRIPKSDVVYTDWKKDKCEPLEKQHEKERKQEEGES
Structure (SMILES),tested on,assay,test system,setting,how to read,measurement,value
COC(=O)c1cn(C)c2ccc(-c3cccnc3)cc12,"Nuclear receptor subfamily 1 group D member 1 (NR1D1, Homo sapiens, UniProt P20393)","reporter gene, Gal4 hybrid reporter",,10 µM,baseline: vehicle,activation,1.29 fold
Cc1c(Cl)c(=O)oc2cc(OCCCCSC#N)ccc12,"Carbonic anhydrase 12 (CA12, Homo sapiens, UniProt O43570)",stopped-flow CO2 hydration,,,baseline: Ki CA II over Ki CA XII,selectivity ratio,> 1690
CC[C@@H]1[C@H](F)C(=O)N[C@@H]1COc1nccc2cc(C(N)=O)c(OC)cc12,"Serine/threonine-protein kinase 38 (STK38, Homo sapiens, UniProt Q15208)","ATP-site probe binding, ActivX profiling",THP-1 cell lysate,"0.2 mM, Lys2 site",,inhibition,31.8%
[2H]c1cc(C)c(NC(=O)c2cnc(Nc3cc(N4CCCCC4)nc(C)n3)s2)c(Cl)c1,"Tyrosine-protein kinase Yes (YES1, Homo sapiens, UniProt P07947)",,,0.01 µM,,inhibition,> 90%
N=C(N)NCCC[C@@H](NC(=O)CCOCCOCCNC(=O)[C@H](CCCCNC(=O)CC[C@H](NC(=O)c1ccc(NCc2cnc3nc(N)[nH]c(=O)c3n2)cc1)C(=O)O)NC(=O)CO/N=C/[C@H](F)[C@@H](O)[C@H](O)[C@H](O)CO)C(=O)NCC(=O)N[C@H](CC(=O)O)C(N)=O [fluorine-18 labelled],,,"female nude mouse, kidney","intravenous, 1 µg, 0.75 h",,tissue uptake,3.15 ± 0.72 %ID/g
Cc1nc(CSc2nc(SCc3ccc(C(C)C)cc3)nc(=O)[nH]2)cs1,"DNA topoisomerase 2-alpha (TOP2A, Homo sapiens, UniProt P11388)",DNA cleavage,,"7.8 µM, replicate 2",,linear DNA,0%
CCS(=O)(=O)N1CC(CC#N)(n2cc(-c3ncnc4[nH]ccc34)cn2)C1,"Alpha-1-acid glycoprotein 1 (ORM1, Homo sapiens, UniProt P02763)",3D fluorescence spectroscopy,,7.2 µM,,Stokes shift,54 nm
CC(C(=O)Nc1c(F)cccc1F)N1CCN(c2ccccc2)CC1 (stereo not drawn),"Short transient receptor potential channel 6 (TRPC6, Homo sapiens, UniProt Q9Y210)","ion current, GCaMP6 calcium imaging",HEK293 transfected,"20 µM, unit not given, together with: 50 µM OAG",baseline: control,peak Ca2+ influx,1.38 ± 0.09
Nc1ncnc2c1ncn2[C@@H]1O[C@H](COP(=O)([O-])OP(=O)([O-])OP(=O)(O)O)[C@@H](O)[C@H]1O.[Mg+2],P2X3-containing receptors (rat),"ion current, patch clamp",nodose ganglion neurons (rat),10 µM,baseline: AF-353-sensitive ATP current,relative current,3.74 ± 0.73 fold
Cc1cc(Nc2ccc(S(F)(F)(F)(F)F)cc2)n2nc(C(C)(F)F)nc2n1,Plasmodium vivax,12-lead ECG,malaria patients,"oral, 800 mg, increase above 60 ms",,patients with QTcF increase,0%
N#Cc1ccc2c(-c3ccncc3)c(-c3ccc(F)cc3)nn2c1,"Cyclin-G-associated kinase (GAK, Homo sapiens, UniProt O14976)",NanoBRET,HEK293,1.0 µM,,receptor occupancy,40 to 70%
Nc1ncnc2c1ncn2[C@@H]1O[C@H](COP(=O)(O)OP(=O)(O)OP(=O)(O)O)[C@@H](O)[C@H]1O,"P2X purinoceptor 7 (P2rx7, Rattus norvegicus, UniProt Q64663, I214G)","ion current, agonist, two-electrode voltage clamp",Xenopus laevis oocytes,100 µM,baseline: highest concentration response,normalized current,0.311 and 0.293 and 0.271
CCC(C)(NCCc1ccccc1)c1cccc(NC2=CC(=O)N(C3CCC(=O)NC3=O)C2=O)c1 (stereo not drawn),ZBTB11/CRBN,"protein degradation, degrader, HiBiT luminescence",MOLT-4,,,Dmax,33%
CCc1oc2ccccc2c1C(=O)c1cc(Br)c(O)c(Br)c1,"Solute carrier family 22 member 12 (SLC22A12, Homo sapiens, UniProt Q96S37)",inhibitor,HEK-293T,"3 µM, 10 min, 37 °C, together with: [14C]urate 10 µM",,normalized urate uptake,0.172 and 0.175 and 0.183
CCOC(=O)C(CCCSC)NC(=O)c1ccc(C2CC2)c(Cc2ccc(F)cc2)n1 (stereo not drawn),"Cannabinoid receptor 2 (CNR2, Homo sapiens, UniProt P34972)",radioligand binding,,,baseline: CB1 over CB2 (human),Ki ratio,4
Nc1nc2c(ncn2[C@@H]2O[C@H](COP(=O)(O)O)[C@@H](O)[C@H]2O)c(=O)[nH]1,"GUK1 (Homo sapiens, UniProt Q16774)","enzyme activity, NADH-coupled",,"125 µM, together with: KCl 10 mM",,reaction velocity,0.0888 µM/s and 0.101 µM/s and 0.094 µM/s
CC(C)C[C@H](NC(=O)C[C@H](O)[C@H](CC(C)C)NC(=O)[C@H](Cc1c[nH]cn1)NC(=O)CNC(=O)[C@@H](NC(=O)[C@H](C)NC(=O)[C@H](Cc1c[nH]c2ccccc12)NC(=O)[C@H](CCC(N)=O)NC(=O)[C@@H](Cc1ccccc1)NC(=O)COCCOCCNC(=O)CCC(C(=O)O)N1CCN(CC(=O)O)CCN(CC(=O)O)CCN(CC(=O)O)CC1)C(C)C)C(N)=O (stereo partly drawn) [lutetium-177 labelled],,,"BALB/c nu/nu mice, salivary glands","500 pmol, 1 h, together with: PA 300 µg",,tissue uptake,0.3 ± 0.2 %ID/g
C=CC(=O)N1CCC(COCC(=O)N2CCN(c3nc(-c4cnc(N)nc4C(F)F)nc(N4CCOC[C@@H]4C)n3)CC2)CC1,"Mitogen-activated protein kinase kinase kinase kinase 4 (MAP4K4, Homo sapiens, UniProt O95819)",KINOMEscan,,1 µM,,remaining binding,85%
CCC(C)(NCCc1cccc(Cl)c1)c1cccc(NC2=CC(=O)N(C3CCC(=O)NC3=O)C2=O)c1 (stereo not drawn),ZBTB11/CRBN,"protein degradation, degrader, HiBiT luminescence",MOLT-4,,,Dmax,32%
Cc1ccc(C(=O)O)cc1S(=O)(=O)Nc1cccc(C(=O)CCC(=O)O)c1,USP20 ZnF-UBD domain,,,,,Kd,> 1000 µM
C=CC(=O)N1CCC(Oc2cc3c(Nc4ccc(Cl)c(Cl)c4F)ncnc3cc2OC)CC1,,"substrate, item: metabolite M2 formation",rat liver microsomes,,,Km,3.5 µM
Nc1ncnc2c1ncn2[C@@H]1O[C@H](COP(=O)(O)CP(=O)(O)OP(=O)(O)O)[C@@H](O)[C@H]1O,"P2X purinoceptor 1 (P2RX1, Homo sapiens, UniProt P51575, K140A)",saturation binding,HEK293,13 nM,,specific binding,3620 CCPM and 1130 CCPM and 1040 CCPM
O=C(O)CCOc1ccccc1,USP20 ZnF-UBD domain,,,,,Kd,523 µM
Cn1cc(-c2ccc(-c3cncc(Cl)c3N3CCC4(CCNC4=O)CC3)cc2)cn1,COLO 205,"gene expression, microarray, item: HIST1H4H mRNA",,"concentration not given, 2 h",baseline: untreated cells,log2 fold change,-2.22
